Assay results gathered from unrelated publications.
Numbered parts are unrelated; each lists some results of a single study. Changes are numbered by the printed parent chain.

Series 1
Target: CCNE2, cyclin fold, Cln2 fusion (human)
Technique: yeast growth competition, sequencing
Matrix: yeast
Setting: weak parent motif
Relative to: not given
Reading: higher = stronger binding
Parent: RB1 docking peptide (human); PKPLKKLRFDIEG
| Change | normalised enrichment score |
| --- | --- |
| PKPPKKLRFDIEG [L4P] | 0.789 |
| PKPLKKLIFDIEG [R8I] | 0.416 |
| PRPLKKLRFDIEG [K2R] | 1.09 |
| PFPLKKLRFDIEG [K2F] | 0.564 |
| PKPLKKTRFDIEG [L7T] | 0.147 |
| PKGLKKLRFDIEG [P3G] | 0.927 |
| PKPLKKLRFWIEG [D10W] | 0.812 |
| PKPLKKLRFDIEW [G13W] | 0.832 |
| PKPLKKLRFDEEG [I11E] | 0.714 |
| PKPLKELRFDIEG [K6E] | -0.327 |
| PKPLKKLRFGIEG [D10G] | 1.98 |
| PKPLKKLRFDSEG [I11S] | 0.67 |
| PKPLKKLEFDIEG [R8E] | -0.133 |
| PKPLTKLRFDIEG [K5T] | 0.951 |
| PKPLKKLRFDIAG [E12A] | -0.181 |
| PKPLKKLRDDIEG [F9D] | 0.194 |
| PKPLKKLRFDIEM [G13M] | 1.14 |
| PKPLKKLRFDHEG [I11H] | 0.726 |
| PKPLCKLRFDIEG [K5C] | 0.0274 |
| PKNLKKLRFDIEG [P3N] | 0.822 |
| GKPLKKLRFDIEG [P1G] | 0.565 |
| PKPLKKLRGDIEG [F9G] | 0.717 |
| PKPLKKLRFDLEG [I11L] | 1.19 |
| PKPLKKLPFDIEG [R8P] | 0.54 |
| QKPLKKLRFDIEG [P1Q] | 0.75 |

Series 2
Target: ABI1, truncated, D143A, DHFR fusion (Arabidopsis thaliana)
Technique: DHFR PCA, deep sequencing
Matrix: yeast
Setting: methotrexate growth selection, single substitutions
Together with: (+)-ABA 200 µM
Relative to: wild-type fitted maximum
Reading: higher = stronger binding
Parent: PYL1, truncated, DHFR fusion (Arabidopsis thaliana); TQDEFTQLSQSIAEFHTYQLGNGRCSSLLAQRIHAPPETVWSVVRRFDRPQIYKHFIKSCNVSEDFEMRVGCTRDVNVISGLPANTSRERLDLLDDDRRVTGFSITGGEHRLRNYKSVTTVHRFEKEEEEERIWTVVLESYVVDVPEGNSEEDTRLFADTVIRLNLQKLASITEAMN; partner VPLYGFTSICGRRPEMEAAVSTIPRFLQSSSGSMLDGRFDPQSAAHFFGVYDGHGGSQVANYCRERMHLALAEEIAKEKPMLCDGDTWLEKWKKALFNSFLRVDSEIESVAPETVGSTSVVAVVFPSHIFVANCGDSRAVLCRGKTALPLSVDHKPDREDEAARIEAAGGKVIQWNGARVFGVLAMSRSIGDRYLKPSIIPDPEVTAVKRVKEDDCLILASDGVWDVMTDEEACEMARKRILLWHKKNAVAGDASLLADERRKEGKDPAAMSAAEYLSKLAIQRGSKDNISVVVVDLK
| Change | relative binding score [%] |
| --- | --- |
| N149K | 40 |
| H16L | 15.6 |
| S117V | -5.12 |
| E14M | 92.5 |
| R113N | 93.6 |
| D96F | 22.9 |
| K168V | 87.9 |
| V136D | 52.2 |
| Y115E | -27.3 |
| T173N | 69.1 |
| V143M | 82.3 |
| R163A | 78.5 |
| D48A | 65.8 |
| E64W | 92.4 |
| E151K | 96.5 |
| S117T | 28.9 |
| L164V | 101 |
| A175S | 100 |
| H55V | 106 |
| I57K | -3.11 |

Series 3
Target: Prothrombin, mature alpha-thrombin (F2, Homo sapiens, UniProt P00734)
Technique: aptamer microarray, sandwich
Molecule type: DNA with 2'F-ANA
Matrix: in vitro
Concentration: 200 nM
Setting: whole 15-mer aptamer, many near background
Together with: Cy3 exosite-II aptamer, 400 nM
Reading: higher = stronger binding
Strand: GGTTGGTGTGGTTGG
| Modification | mean fluorescence intensity [a.u.] |
| --- | --- |
| 2'F-ANA at 1 3 5 6 7 8 9 10 11 12 13 14 | 66.8 |
| 2'F-ANA at 2 3 4 7 9 12 13 | 657 |
| 2'F-ANA at 1 3 4 5 10 11 12 14 15 | 49.1 |
| 2'F-ANA at 2 5 6 8 9 10 11 12 14 15 | 48.1 |
| 2'F-ANA at 2 3 4 6 8 9 11 13 14 15 | 193 |
| 2'F-ANA at 1 2 3 4 5 9 11 13 15 | 57.6 |
| 2'F-ANA at 1 2 5 6 8 9 11 15 | 57.1 |
| 2'F-ANA at 2 3 4 5 7 8 9 11 13 | 65.7 |
| 2'F-ANA at 1 3 4 5 6 8 10 12 14 | 138 |
| 2'F-ANA at 3 4 6 7 15 | 668 |
| 2'F-ANA at 7 9 10 12 13 14 | 126 |
| 2'F-ANA at 2 3 4 8 10 11 12 13 14 15 | 154 |
| 2'F-ANA at 1 2 7 8 10 14 15 | 160 |
| 2'F-ANA at 1 2 3 4 6 10 12 14 | 48.9 |
| 2'F-ANA at 2 3 4 8 9 11 13 14 | 303 |
| 2'F-ANA at 2 4 5 6 12 | 161 |
| 2'F-ANA at 2 3 4 5 6 7 8 11 13 14 | 49.6 |
| 2'F-ANA at 1 2 4 7 8 9 13 14 | 61.4 |
| 2'F-ANA at 1 2 3 4 5 6 10 12 13 14 15 | 63 |
| 2'F-ANA at 2 7 9 13 14 | 146 |
| 2'F-ANA at 2 4 11 12 13 14 | 120 |
| 2'F-ANA at 2 4 5 6 9 10 11 15 | 50.6 |
| 2'F-ANA at 2 5 9 13 | 54.3 |
| 2'F-ANA at 1 7 8 9 10 11 13 14 | 77.5 |
| 2'F-ANA at 5 6 7 8 10 11 12 14 | 47.4 |

Series 4
Target: RING finger protein unkempt homolog, zinc fingers 1-6, GST-SBP tag (UNK, Homo sapiens, UniProt Q9C0B0, residues 30-357)
Technique: RNA Bind-n-Seq
Molecule type: RNA
Matrix: in vitro
Concentration: not given
Setting: RNA with constant flanks, human-mouse chimeric sites, ends assumed
Relative to: input RNA pool
Reading: higher = stronger binding
All sequences stand within: GGGAGUUCUACAGUCCGACGAUC … CAACAGAGGAUUGAGCAUCA
Construct (chain): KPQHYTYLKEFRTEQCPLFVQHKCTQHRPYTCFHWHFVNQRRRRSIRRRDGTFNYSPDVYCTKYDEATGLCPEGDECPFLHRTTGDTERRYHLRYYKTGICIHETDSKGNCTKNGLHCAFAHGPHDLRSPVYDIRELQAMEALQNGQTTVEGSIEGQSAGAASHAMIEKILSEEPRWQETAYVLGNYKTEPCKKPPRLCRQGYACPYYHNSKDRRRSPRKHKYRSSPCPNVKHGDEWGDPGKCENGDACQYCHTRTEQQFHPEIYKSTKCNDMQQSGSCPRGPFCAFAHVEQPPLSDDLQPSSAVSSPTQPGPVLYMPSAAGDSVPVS
| Strand | bound/input enrichment [ratio] |
| --- | --- |
| ACUCUUGACUCUUUCCAUCCUCUUCCUUUCCCUCUUGAUAUUCAAGGCCAUGAAUCCCAAAAUAACAGUCUUAGUGGCUAGCACCCACCCAAACUGAGGUGCCAUCCACCCCAGUGUCUC | 0.403 |
| UCUUUAAAAAAAAAAUUACCUUUUCUGACAGUGCUUUCCCUCCCAUAGAUCCACGUUCACACUAGAAGAGCAAAGGCUUUGCACGGAGCUCAAACAUCUGAUGAAGAUUUUUGAGACAGA | 1.94 |
| GAUCCACAGUGGUCUGAGGAGCAACUCAUUGCUGCAAAAUUCUGUUUUGCUGGACUUGUUAUAGGGCAGACUGAAGUGGACAUCAUGAGUCAUGCCACACAAGCUAUUUUUGAAAUUCUG | 0.195 |
| UACAUCACCAAUGUUCUACAAAAUCCUGACUUGGCUCUGAGAAUGGCUGUGCGGAACAACUUAGCUGGUGCUGAAGAACUCUUUGCCCGGAAAUUUAAUGCUCUCUUCGCCCAGGGAAAC | 0.265 |
| GUGCCCUUCUCGCUGCUGCGGAGCCCGCCCAGCUGGGACCCCUUCCGCUGGUACCCUGCACACAGCCGCCUCUUCGAUCAAGCUUUCGGGGUGCCCCGGUUGCCCGAUGAGUGGUCGCAG | 0.0754 |
| GAAUCCUACUCAGGCGGUCCCACAACAACCAAGCUCACAGCAGCAGCAUCUUAGUCACAGUAGGGUAGCUUUAGGGCUCUGUGGCCAGGGUUUUAUUCACAUGCAGGUUUGGAAAAUGUA | 0.41 |
| GGAAGUACAAUGAUGGAGAUUGAUGGUGAUAAAGGCAAGCAGGGCGGGCCCACCUACUACAUAGACACCAAUGCCCUGCGUGUUCCGAGGGAGAACAUGGAGGCCAUCUCACCACUCAAG | 0.218 |
| GCGGCAGAAUCAUGGAGGACAUAAUGCAGCUCCCCAAGUCGCGCAUCAACGCCAGCAUGUUACCACAGUAUAUCGACCGGCCCGUGUGCUUCGUGGGGAGGCUGGAAAAGAUUCAUCCCA | 0.0776 |

Single results of other studies
| Substance | target | test | test system | conditions | scale | quantity | value |
| --- | --- | --- | --- | --- | --- | --- | --- |
| PhoQ, residues 284 288 289 292 302 303 ALASRC | PhoP, residues 12 14 15 18 19 YHFSH (Escherichia coli, UniProt P23836) | Sort-seq, refers to: YFP reporter | E. coli | PhoQ-PhoP variant library, together with: 10 µM Mg2+ | relative to: high Mg2+ state, higher = stronger signaling | fold induction | 8.74 |

For quick reference, copied from above (series 4):
| Strand | bound/input enrichment [ratio] |
| --- | --- |
| ACUCUUGACUCUUUCCAUCCUCUUCCUUUCCCUCUUGAUAUUCAAGGCCAUGAAUCCCAAAAUAACAGUCUUAGUGGCUAGCACCCACCCAAACUGAGGUGCCAUCCACCCCAGUGUCUC | 0.403 |
| UACAUCACCAAUGUUCUACAAAAUCCUGACUUGGCUCUGAGAAUGGCUGUGCGGAACAACUUAGCUGGUGCUGAAGAACUCUUUGCCCGGAAAUUUAAUGCUCUCUUCGCCCAGGGAAAC | 0.265 |
| GCGGCAGAAUCAUGGAGGACAUAAUGCAGCUCCCCAAGUCGCGCAUCAACGCCAGCAUGUUACCACAGUAUAUCGACCGGCCCGUGUGCUUCGUGGGGAGGCUGGAAAAGAUUCAUCCCA | 0.0776 |
| GGAAGUACAAUGAUGGAGAUUGAUGGUGAUAAAGGCAAGCAGGGCGGGCCCACCUACUACAUAGACACCAAUGCCCUGCGUGUUCCGAGGGAGAACAUGGAGGCCAUCUCACCACUCAAG | 0.218 |
| GUGCCCUUCUCGCUGCUGCGGAGCCCGCCCAGCUGGGACCCCUUCCGCUGGUACCCUGCACACAGCCGCCUCUUCGAUCAAGCUUUCGGGGUGCCCCGGUUGCCCGAUGAGUGGUCGCAG | 0.0754 |
| GAAUCCUACUCAGGCGGUCCCACAACAACCAAGCUCACAGCAGCAGCAUCUUAGUCACAGUAGGGUAGCUUUAGGGCUCUGUGGCCAGGGUUUUAUUCACAUGCAGGUUUGGAAAAUGUA | 0.41 |
| UCUUUAAAAAAAAAAUUACCUUUUCUGACAGUGCUUUCCCUCCCAUAGAUCCACGUUCACACUAGAAGAGCAAAGGCUUUGCACGGAGCUCAAACAUCUGAUGAAGAUUUUUGAGACAGA | 1.94 |
| GAUCCACAGUGGUCUGAGGAGCAACUCAUUGCUGCAAAAUUCUGUUUUGCUGGACUUGUUAUAGGGCAGACUGAAGUGGACAUCAUGAGUCAUGCCACACAAGCUAUUUUUGAAAUUCUG | 0.195 |
